Measured values pooled from the literature.
A part holds a random share of what one study measured. Positions count from the first letter of the parent shown.

Set 1 — technique: DHFR PCA, deep sequencing; matrix: yeast; with: (+)-ABA 710 µM; relative to: wild-type fitted maximum; direction: higher = stronger binding
Target: ABI1, truncated, D143A, DHFR fusion (Arabidopsis thaliana)
Setting: methotrexate growth selection, single substitutions
Parent: PYL1, truncated, DHFR fusion (Arabidopsis thaliana); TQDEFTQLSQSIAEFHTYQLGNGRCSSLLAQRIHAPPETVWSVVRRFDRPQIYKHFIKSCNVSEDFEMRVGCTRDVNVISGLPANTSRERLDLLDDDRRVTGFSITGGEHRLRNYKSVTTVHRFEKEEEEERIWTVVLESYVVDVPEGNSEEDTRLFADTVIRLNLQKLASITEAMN; partner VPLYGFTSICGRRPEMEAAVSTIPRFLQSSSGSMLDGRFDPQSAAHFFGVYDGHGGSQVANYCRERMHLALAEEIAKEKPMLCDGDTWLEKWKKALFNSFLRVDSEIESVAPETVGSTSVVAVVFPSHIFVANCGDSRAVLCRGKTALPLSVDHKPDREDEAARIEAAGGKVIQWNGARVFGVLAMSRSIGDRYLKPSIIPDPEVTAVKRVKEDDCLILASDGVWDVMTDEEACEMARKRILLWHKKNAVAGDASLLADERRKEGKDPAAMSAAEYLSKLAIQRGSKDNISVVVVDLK
Under “relative binding score”, `P37L` is recorded as 89.9%.
Under “relative binding score”, `Y115E` is recorded as -0.869%.
For `F124G`, “relative binding score” read 98.9%.
Under “relative binding score”, `H16L` is recorded as 17.5%.
`K126N`: “relative binding score” 106%.
`E14M` — result for “relative binding score”: 93.5%.
For `R111P`, “relative binding score” read 56%.
For `T173N`, “relative binding score” read 83%.

Set 2 — target: CCND2, cyclin fold, Cln2 fusion (human); technique: yeast growth competition, sequencing; matrix: yeast; setting: weak parent motif; relative to: not given; direction: higher = stronger binding
Parent: MASTL docking peptide (human); PMIAKNLMCELDE; partner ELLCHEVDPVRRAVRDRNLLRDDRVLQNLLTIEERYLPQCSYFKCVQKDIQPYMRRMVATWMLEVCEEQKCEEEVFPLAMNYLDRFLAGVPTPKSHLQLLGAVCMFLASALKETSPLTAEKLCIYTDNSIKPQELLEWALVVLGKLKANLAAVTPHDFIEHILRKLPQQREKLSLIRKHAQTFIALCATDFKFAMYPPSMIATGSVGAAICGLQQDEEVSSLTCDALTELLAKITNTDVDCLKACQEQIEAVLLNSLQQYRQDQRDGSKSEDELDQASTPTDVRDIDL
For `PMIAENLMCELDE [K5E]`, “normalised enrichment score” read 0.135.
Under “normalised enrichment score”, `PMIAKNLMCDLDE [E10D]` is recorded as 0.136.
Under “normalised enrichment score”, `PMVAKNLMCELDE [I3V]` is recorded as 0.102.
For `PMIAKNLMCEYDE [L11Y]`, “normalised enrichment score” read -0.0791.
Under “normalised enrichment score”, `PMIAKNLMCEGDE [L11G]` is recorded as 0.32.
For `PMGAKNLMCELDE [I3G]`, “normalised enrichment score” read 0.411.
Under “normalised enrichment score”, `PMCAKNLMCELDE [I3C]` is recorded as 0.156.
`PMIAKVLMCELDE [N6V]` — result for “normalised enrichment score”: 0.2.
For `PMIAKGLMCELDE [N6G]`, “normalised enrichment score” read 0.133.
`PMIAKNLMCEQDE [L11Q]`: “normalised enrichment score” 0.233.
Under “normalised enrichment score”, `PMIAKNLMCEWDE [L11W]` is recorded as 0.217.

Set 3 — technique: universal PBM; form: double-stranded DNA, one strand shown; matrix: in vitro; concentration: not given; direction: higher = stronger binding
Target: Sal-like protein 4, full length isoform B (SALL4, Homo sapiens, UniProt Q9UJQ4-2, residues 1-616)
Setting: 8-mer, flanks averaged, mean of replicates
With `GACGTCTC` the E-score was -0.0966.
With `AACCTTCT` the E-score was -0.141.
For `TAAGAAGA`, the E-score was 0.136.
`CGTTCGTA` gave an E-score of 0.126.
The E-score of `AAATATGG` is reported as 0.376.
`AATGGCCA` has an E-score of -0.0931.
For `CGACTGAA`, the E-score was -0.2.
For `ACCAAGGT`, the E-score was -0.146.
`CGCTTAAC` has an E-score of 0.0175.
For `CGCCAAAC`, the E-score was -0.102.
With `GACACTCA` the E-score was -0.144.
`ATTAATAC` has an E-score of 0.375.
With `AGTAGTAC` the E-score was 0.106.

Mixed results
With `PhoQ, residues 284 288 289 292 302 303 SIHLQL` the fold induction was 15.3 (PhoP, residues 12 14 15 18 19 SMASL (Escherichia coli, UniProt P23836); Sort-seq, measured: YFP reporter; E. coli; PhoQ-PhoP variant library, with: 10 µM Mg2+; relative to: high Mg2+ state, higher = stronger signaling).

A few entries again (set 2):
For `PMGAKNLMCELDE [I3G]`, “normalised enrichment score” read 0.411.
`PMIAKVLMCELDE [N6V]` — result for “normalised enrichment score”: 0.2.
For `PMIAKGLMCELDE [N6G]`, “normalised enrichment score” read 0.133.
Under “normalised enrichment score”, `PMCAKNLMCELDE [I3C]` is recorded as 0.156.
For `PMIAENLMCELDE [K5E]`, “normalised enrichment score” read 0.135.
